Assay results pooled from the literature.
MTOR: Serine/threonine-protein kinase mTOR (MTOR, Homo sapiens, UniProt P42345)
MTOR with FKBP12: Serine/threonine-protein kinase mTOR, with FKBP12 (MTOR, Homo sapiens, UniProt P42345)

Compound | target | test | conditions | scale | quantity | result
CNC(=O)C[C@H](Cc1ccc(C#N)cc1)NC(=O)c1cc(-c2ccc(CN[C@H](C)c3ccc(C)cc3)o2)ccc1Cl | MTOR | enzyme activity, inhibitor | 1 µM |  | activity vs control | 100%
Nc1ncc2c(n1)-c1c([nH]c3ccc(C4=CCOCC4)cc13)CCC2 | MTOR | binding, competition with immobilised ligand | 1 µM |  | remaining binding | 92%
CCn1cc(C(=O)O)c(=O)c2c(N)c(F)c(NC3CCCCC3)cc21 | MTOR | kinase activity | 0.1 µM |  | inhibition | -7.3%
C[C@H]1CN(C(=O)c2cn(-c3ccnc(N)n3)c3cc(C#CC4(O)CCCCC4)ccc23)CCN1 | MTOR | enzyme activity, inhibitor, FRET | 1 µM |  | inhibition | 2%
Cc1cccc(O[C@H]2CCC[C@@H](C(C)CNCc3ccncc3)C2)c1 (relative stereo) | MTOR | enzyme activity, inhibitor | 1 µM |  | inhibition | 3%
CC(=O)N1c2ccc(-c3ccc(CNC(=O)c4cn5cc(-c6cnc(N)nc6)nc(N6CCOCC6)c5n4)cc3)cc2CC[C@@H]1C | MTOR | enzyme activity, inhibitor, radiometric | 10 µM |  | remaining activity | 80%
COc1ccc(NC(=O)Nc2ccc3c(c2)C(=O)N(C(C)CO)CC(C)C(CN(C)Cc2ccc4c(c2)OCO4)O3)cc1 (stereo not drawn) | MTOR with FKBP12 | kinase activity, KinaseProfiler | 0.03 µM, species human | reference: control | remaining activity | 125%
Cc1nc2c(F)cc(-c3nc(Nc4ccc(CNC(=O)CCCCCCC(=O)NO)cc4)ncc3F)cc2n1C(C)C | MTOR with FKBP12 | kinase activity | 1 µM |  | inhibition | 55%
O=C(Cc1ccc(OCc2ccccc2)cc1)NC1(C(=O)O)CCN(C(=O)c2ccc(-c3cccc(Cl)c3)cc2)CC1 | MTOR | enzyme activity, inhibitor | 10 µM |  | activity vs control | 89%
CNC(=O)C1CCN(c2cc(C)c(F)cc2NC(=O)c2ccc(-c3cc(O)ccc3C)c(C)c2)CC1 | MTOR | binding, competition with immobilised ligand | 1 µM |  | remaining binding | 100%
C=CC(=O)N1Cc2nc(-c3cc(-c4cc(Cl)cnc4Cl)c(F)cc3F)n(-c3ccncn3)c2C1 | MTOR | enzyme activity, inhibitor | 1 µM |  | inhibition | -1.7%
CNC1C[S+]2CC[S+]3CC[S+](C1)[Ru-4]321([N]=C=S)[n]2c3ccc(OC)cc3c3c4c(c5cc(F)c[n+]1c5c32)C(=O)NC4=O (stereo not drawn) | MTOR | kinase activity | 0.1 µM |  | remaining activity | 98%
C=CC(=O)N1CCCC(n2c(=O)c3ncccc3n(Cc3ccc(Oc4ccccc4)cc3)c2=O)C1 (stereo not drawn) | MTOR | cell-free assay, competition with immobilised ligand | 1 µM |  | remaining binding | 63%
COc1cc(Nc2nccc(-c3cnn4nc(OC)ccc34)n2)cc(C(F)(F)F)c1 | MTOR | binding, competition with immobilised ligand | 1 µM |  | remaining binding | 66%
CCN1CCN(Cc2ccc(C(=O)Nc3ccc(C)c(NCc4cnc5[nH]ccc5c4OC)c3)cc2C(F)(F)F)CC1 | MTOR | binding, competition with immobilised ligand | 1 µM |  | remaining binding | 100%

A few entries again:
Compound | target | test | conditions | scale | quantity | result
Nc1ncc2c(n1)-c1c([nH]c3ccc(C4=CCOCC4)cc13)CCC2 | MTOR | binding, competition with immobilised ligand | 1 µM |  | remaining binding | 92%
